# Results of several laboratories.
# Parts stem from different laboratories: compare values within a part only.

# Study 1
# Target: Fragile X messenger ribonucleoprotein 1, C-terminal low-complexity region (Fmr1, Mus musculus, UniProt P35922)
# Technique: RNA Bind-n-Seq
# Molecule type: RNA
# Sample: in vitro
# Concentration: 200 nM
# Setting: whole 134-nt RNA, ends assumed
# With: 150 mM KCl
# Reference: input library
# Reading: higher = stronger binding
# Constant ends, left off below: GGGAGUUCUACAGUCCGACGAUC … UGGAAUUCUCGGGUGUCAAGG
Oligonucleotide,log2 enrichment
UAACUUUAGAGGAGGAUCUGAUGGAUAUGGCAGUGGGCGUGGAUUUGGGGAUGGCUAUAAUGGGUAUGGAGGAGGACCUGGAGGUGGCAA,0.464
UGGGAGGUGGAUUUUGUUUAUUUUUUUAGCUCAUUUCCAGGGGUGGGAAUUUUUUUUUAAUAUGUGUCAUGAAUAAAAUUGUUUUUGAAA,0.14
AGUCCUGUGCUACACAUCGUAUGUACCGAAUCGGUUUUUUUGGAAAAAAAGGAAAGGAAAGUAUUAUGUUACGCCGUUCGGAUCUGCACU,-1.26
AGUCCUGUGCUACACAUCGUAUGUACCGAAUCGGGGAAAAGGGAAAAGGGGAAAAGGAAAGUAUUAUGUUACGCCGUUCGGAUCUGCACU,0.145
CCUGUGCUACACAUCGUAUGUACCGAAUCGGUUUUUUGGGGUUUUUUGGGGUUUUUUGGGAAAGUAUUAUGUUACGCCGUUCGGAUCUGC,-0.498
CCUGUGCUACACAUCGUAUGUACCGAAUCGGGUUUUUUUGGUUUUUUUGGGUUUUUUUGGAAAGUAUUAUGUUACGCCGUUCGGAUCUGC,-0.4
GCAGGAAGUAAAAACAAAUGGAAAUGCUUCGGAUAGUGGCAGGGGUGGGGGUUGCUAAGGAAAGAGUGGGAUGGGAGUGGGUAAAGAGUU,0.227
AGUCCUGUGCUACACAUCGUAUGUACCGAAUCGGAAAAAGGAAAAAAAGGUUUUUGGAAAGUAUUAUGUUACGCCGUUCGGAUCUGCACU,-1.42

# Study 2
# Target: RING finger protein unkempt homolog, zinc fingers 1-6, GST-SBP tag (UNK, Homo sapiens, UniProt Q9C0B0, residues 30-357)
# UniProt Q9C0B0, sequence (30-357, looked up): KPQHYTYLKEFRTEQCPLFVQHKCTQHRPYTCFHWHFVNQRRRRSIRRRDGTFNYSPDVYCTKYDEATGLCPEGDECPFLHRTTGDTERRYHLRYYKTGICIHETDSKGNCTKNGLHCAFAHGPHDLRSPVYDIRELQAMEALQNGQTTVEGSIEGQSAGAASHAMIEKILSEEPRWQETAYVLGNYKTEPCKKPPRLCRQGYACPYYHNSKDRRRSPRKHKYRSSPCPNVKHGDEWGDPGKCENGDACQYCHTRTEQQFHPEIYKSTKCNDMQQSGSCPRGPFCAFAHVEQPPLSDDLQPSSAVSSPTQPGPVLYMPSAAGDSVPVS
# Technique: RNA Bind-n-Seq
# Molecule type: RNA
# Sample: in vitro
# Concentration: not given
# Setting: RNA with constant flanks, human-mouse chimeric sites, ends assumed
# Reference: input RNA pool
# Reading: higher = stronger binding
# Constant ends, left off below: GGGAGUUCUACAGUCCGACGAUC … CAACAGAGGAUUGAGCAUCA
Oligonucleotide,bound/input enrichment [ratio]
UACUACUAUGAUGGUGAUAUUGGAAAUUAUUAUUAUGGCCAGGGUCAUCCCAUGAAGCCUCAUAGAAUCCGGAUGACUCAUAACUUGCUGUUAAAUUAUGGUUUAUACCGAAAAAUGGAA,0.131
CAGUCCCCGUGUCCCAGGGGACAAUGUUGUGAACAAAAACUCAAAGCGGACCCUCUAUUGUAGUUCUUGAUUCUCGAAAUGUGCUAUUAUUGUUUGUCUUUUUUUUUUUUUUUUUAAAGA,1.52
GUGACUGGUGUUAAGAUUUCCCCUCAGAAAAGAACUGCAGUAGUCACCAUAAUUCCAUCUGUGGUGAGUGCCAGUCAGAUUGUGGAGCUGGUUCCAGACCUCAGUUUAGACAUGGGAACU,0.208
UCAGUCUUUUUGUACAGCUUUGUAAAUUCUUAACAUUUUUAUAUUGCCAUGUUUAUUUUGUUUGGGUAAUUUGGUUCAUUAAGUACAUAGCUAAGGUACAUCUUUCAUUUUUCAGUAAUU,1.35
UCUGGUCACACUCGUGUGUAUGGUGUUUGCUUUGUGGACACUUCACUGGGCAAGUUUUUCAUAGGUCAGUUUUCGGAUGACCGCCACUGUUCGAGAUUUAGGACGCUAGUGGCUCACUAU,0.326
GUGUCCUGCUUUCAACUAUCACUGAGGCAUUUUUACUACUGUUCUGUGAGCAUCAGGACUGUAGCGCUGUGUCACCACAUGAGAGUUCAGAAGCAGCCUUUCUGUGGAGGGUGGGAAUGA,0.117
UGGCGCCUGCGCUCCCCACUCGUGUUUUUAAGUGUAUAAGAUGUAUAUACAUGUAUUUACAAUUGAGCUUUUGUUACAUAAUGCUGAAAACAUCUCUGAGAUUAUGAAAAAUGUUUCAAU,0.085
UUCAAAGAAAAGGGCAGUUCAUAAAUAUCAUAAGUAACUCUGGGGGAGGGAAAUUCUGUUCUUUUGUUUAAUUUUCCCCCAAAUGAAGCCAAAGUGUUUUUUAAGGAACUGAGAAAAAAU,0.331

# Study 3
# Target: Interferon regulatory factor 7, full length, phosphomimetic (IRF7, Homo sapiens, UniProt Q92985, residues 1-503, S101K/S471D/S472D/S475D/S476D/S477D/S483D/S484D/S487D)
# UniProt Q92985, sequence (whole entry, unmodified, looked up): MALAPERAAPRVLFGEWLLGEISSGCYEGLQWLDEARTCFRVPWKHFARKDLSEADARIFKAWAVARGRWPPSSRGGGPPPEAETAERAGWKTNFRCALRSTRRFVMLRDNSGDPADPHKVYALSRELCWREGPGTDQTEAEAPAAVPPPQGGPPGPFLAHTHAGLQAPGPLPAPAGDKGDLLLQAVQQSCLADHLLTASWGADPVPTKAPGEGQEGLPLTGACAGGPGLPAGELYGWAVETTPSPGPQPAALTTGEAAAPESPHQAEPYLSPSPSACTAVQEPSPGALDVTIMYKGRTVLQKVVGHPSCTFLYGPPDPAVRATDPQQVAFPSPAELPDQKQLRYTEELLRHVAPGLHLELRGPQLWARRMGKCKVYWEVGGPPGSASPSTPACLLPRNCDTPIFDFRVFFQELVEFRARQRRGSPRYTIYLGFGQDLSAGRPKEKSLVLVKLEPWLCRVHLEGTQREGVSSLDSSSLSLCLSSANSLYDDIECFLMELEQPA
# Technique: protein-binding microarray
# Molecule type: double-stranded DNA, one strand shown
# Sample: in vitro
# Concentration: 250 nM
# Setting: 60-bp whole probe
# With: salmon DNA 0.4 mg/ml
# Reference: random background probes
# Reading: higher = stronger binding
# Constant ends, left off below: GCCTAGCAC … GTCTTGATTCGCTTGACGCTGCTG
Oligonucleotide,log fluorescence
GATGGTCTCGGTATCGGGACGTGCTAG,2.23 z-score
GACGGACTGCACTATCGGGACGTGCTA,-0.907 z-score
GACGGTCTCGGACTAGGGACGTGCTAG,0.276 z-score
TTAGGTTTTCTTTTCCTTTAGTGCTAG,3.22 z-score
TCAATGATTTTTTTCATACTGTGCTAG,0.152 z-score
GACGATCTCGGACTGGGGACGTGCTAG,-0.165 z-score
TTAGAACTGGCGTTTCGATTAGTGCTA,4.32 z-score
GGTCTTCTGGGCTGTTTGATCGTGCTA,-0.505 z-score

# Mixed results
SMILES,host,sample,concentration,time,endpoint,value
Cc1cc(C)cc(NC(=O)N2Cc3c(sc4c3CCCC4)-n3cccc3C2c2cccs2)c1 (stereo not shown),mouse,microsomes or S9,2 µM,0.5 h,remaining compound,31.2%

# For quick reference, copied from above (study 2):
Oligonucleotide,bound/input enrichment [ratio]
CAGUCCCCGUGUCCCAGGGGACAAUGUUGUGAACAAAAACUCAAAGCGGACCCUCUAUUGUAGUUCUUGAUUCUCGAAAUGUGCUAUUAUUGUUUGUCUUUUUUUUUUUUUUUUUAAAGA,1.52
GUGACUGGUGUUAAGAUUUCCCCUCAGAAAAGAACUGCAGUAGUCACCAUAAUUCCAUCUGUGGUGAGUGCCAGUCAGAUUGUGGAGCUGGUUCCAGACCUCAGUUUAGACAUGGGAACU,0.208
UCAGUCUUUUUGUACAGCUUUGUAAAUUCUUAACAUUUUUAUAUUGCCAUGUUUAUUUUGUUUGGGUAAUUUGGUUCAUUAAGUACAUAGCUAAGGUACAUCUUUCAUUUUUCAGUAAUU,1.35
